Results of several laboratories.
Parts stem from different laboratories: compare values within a part only. Positions count from the first letter of the parent shown.

Block 1
Target: RNA binding protein fox-1 homolog 2, RRM domain, GST-SBP tag (RBFOX2, Homo sapiens, UniProt O43251-10, residues 100-194)
Technique: RNA Bind-n-Seq
Form: RNA
Sample: in vitro
Concentration: 365 nM
Setting: natural RNA segment, single round, ends assumed
Relative to: no-protein control
Direction: higher = stronger binding
Endpoint: RBNS enrichment (R)
All sequences stand within: GGGAGUUCUACAGUCCGACGAUC … UGGAAUUCUCGGGUGCCAA
Construct (chain): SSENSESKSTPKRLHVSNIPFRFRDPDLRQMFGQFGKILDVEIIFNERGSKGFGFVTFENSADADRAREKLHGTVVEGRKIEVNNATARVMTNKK
CAGGGACAGGGCCUCUUUGGAAUUAGGCAGAACGACUGCCACAGCUCAGACCUCAGAGAUUGUGAAGGCAGUGCCAAGCUCACAGCAGUUCAGGACCAUCCCAGAAAGGG: 1.62
CAAACAAAAUUUAAGGCGUUUAUCCACAAGUUCUUGACUCGGGUACAGUGCGUUCCUGAGACACCCUCUUUGGGAGCACAGGCAGUUAGCUGGAAGAACUCCAAGGAAAA: 0.264
ACCUUUUUGUUAGUGUUUAAGGGAGCCCCUGAAGAGACUCAACAGAACAGUGAGAGGAGAGAGAGAAAAGCUGGCAGGGUUGUGACUGGCAUGCAAAUCCAUAUUCUAGC: 1.06
UGGUCACUGCCCUUACCUGACCCUCACAGAAAGAGAGCUCUGAGCAGGUGAGGGGGUCUGCGGUGGCUCCUGUCUUCCCUGCAGCAGGGAAGGAGGGCCGUGUGGUGCUU: 0.57
ACAUAUUCUUGGGUACUCUAUUUAUGUAUCUUUCAUGCCUUGAAAAUCUGAAGGUUAAUCCAAACUCACAUGUUUUAGCAUAUUUGAGAAAAAAAAACUACCUUCAAUAU: 0.602
AACUGUAUUAAAAAGGCUCUGUUUUUAAAGAUCAAUUGUCAUUCCUGUGGGGACAGUGGCUACUGAGAAAUCUACAUUGUAAGAGAAGACAAUGAAAGACCCUGGCCCUG: 0.554
UUGAAAGUGAAGAUGAUGCCCUAAUUCCUGGUAAGGAUUUGGGGCAUAGUUUUUUGUUUUUUUGAGACGGAGUUUCGCUCUUGUUGCCCAAGCUGGAGUGCAGUGGCGCG: 0.265
UUGGGUAAUAAGCUCAAGAGGGUUGACAUUUCAAACUGCCAAAAAUGAAAAUAUUCUAGUUAUUAAACUCUUGGUCUAGAAAUACUUCUGUCUGUAAACUUUGACAUCCA: 1.15

Block 2
Target: Interferon regulatory factor 3, full length, phosphomimetic (IRF3, Homo sapiens, UniProt Q14653, residues 1-427, S386D/S396D/S398D/S402D/T404D/S405D)
Technique: protein-binding microarray
Form: double-stranded DNA, one strand shown
Sample: in vitro
Concentration: 2540 nM top
Setting: 60-bp whole probe
With: salmon DNA 0.4 mg/ml
Relative to: random background probes
Direction: higher = stronger binding
Endpoint: fitted relative affinity
All sequences stand within: GCCTAGCAC … GTCTTGATTCGCTTGACGCTGCTG
Target sequence (chain): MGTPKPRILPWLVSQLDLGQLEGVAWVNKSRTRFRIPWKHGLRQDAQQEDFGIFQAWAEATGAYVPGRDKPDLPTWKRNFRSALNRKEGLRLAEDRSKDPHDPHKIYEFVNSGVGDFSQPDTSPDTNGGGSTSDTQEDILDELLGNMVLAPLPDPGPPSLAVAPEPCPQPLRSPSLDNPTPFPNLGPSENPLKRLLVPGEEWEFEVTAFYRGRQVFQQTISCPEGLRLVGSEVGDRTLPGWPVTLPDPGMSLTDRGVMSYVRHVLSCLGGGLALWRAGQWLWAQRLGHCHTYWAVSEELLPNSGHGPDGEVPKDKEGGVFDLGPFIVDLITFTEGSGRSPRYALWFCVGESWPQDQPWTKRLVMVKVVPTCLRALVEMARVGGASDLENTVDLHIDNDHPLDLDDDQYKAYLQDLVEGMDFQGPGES
GACGAACTGGGGTTTCGAAACGTGCTA: 1.61 z-score
TTAGATTCCGGTTTCGATTAGTGCTAG: 5.63 z-score
ATATATATTCATATATATATGTGCTAG: 1.14 z-score
GACGGTTTCGGGTACCGGGACGTGCTA: 4.18 z-score
GACGATTTCGAGTATCGAGACGTGCTA: 1.32 z-score
CAGAGCATGGATCTGGGAACGTGCTAG: -0.639 z-score
TGCGGTTCAGATATAGGATAGTGCTAG: 0.468 z-score
TTAGATATCAGACTGGATTCGTGCTAG: 0.139 z-score
GACGGTATCGGGTATCGGTACGTGCTA: 2.43 z-score
GAAGGACTGGGTTTCGGGACGTGCTAG: 1.04 z-score
TTGGGTTCCGGTTTCGGTTAGTGCTAG: 7.11 z-score
TCACATTTTGGTTTTCTACTGTGCTAG: 1.91 z-score
TTAGGACTGCTTATCTTTTAGTGCTAG: -0.22 z-score
GACGATTTCGACACTGGGGACGTGCTA: 1.25 z-score
GACGGTATCCTTCTCCTGACGTGCTAG: 6.84 z-score
TTAGGTTTCGGGTTTCGTTTAGTGCTA: 5.94 z-score
TCACTTTTATTTTTTTTACTGTGCTAG: 2.28 z-score
TTATAACTGAGACTGGATTAGTGCTAG: -0.0424 z-score
GACGAACTGGGGTTTCGAGATGTGCTA: 0.436 z-score

Block 3
Target: CCNA1, cyclin fold, Cln2 fusion (human)
Technique: yeast growth competition, sequencing
Sample: yeast
Setting: weak parent motif
Relative to: not given
Direction: higher = stronger binding
Endpoint: normalised enrichment score
Starting sequence: WEE1 docking peptide (human); HKTFRKLRLFDTP
HKTFRKLRLFTTP [D11T]: 0.127
HKTLRKLRLFDTP [F4L]: -0.178
HKTFRLLRLFDTP [K6L]: 0.148
HKTFRPLRLFDTP [K6P]: 0.469
HKTFNKLRLFDTP [R5N]: -2.75
HKTFRKLRLFDWP [T12W]: 0.163
HKTFRKLRLCDTP [F10C]: 0.0934
HKMFRKLRLFDTP [T3M]: 0.132
HRTFRKLRLFDTP [K2R]: 0.39
HNTFRKLRLFDTP [K2N]: 0.393
HKTFRKLRAFDTP [L9A]: 0.354
HKVFRKLRLFDTP [T3V]: 0.578
HKTFRKLRWFDTP [L9W]: 0.0643
HKTFRVLRLFDTP [K6V]: 0.105
HKTFRKLRLFHTP [D11H]: -0.525
HKTFRKNRLFDTP [L7N]: 0.31
HKTFRKLRLFDIP [T12I]: 0.538
HKTFRKLRLFPTP [D11P]: 0.315
HKTERKLRLFDTP [F4E]: 0.194
HKTFRKLRLFETP [D11E]: 0.248
HKTFRKLRLMDTP [F10M]: 0.241
HKTFRKLRLADTP [F10A]: 0.778
HKTKRKLRLFDTP [F4K]: 0.263
HKTFRKLRFFDTP [L9F]: 0.481
HKTFTKLRLFDTP [R5T]: 0.233

Block 4
Target: ABI1, truncated, D143A, DHFR fusion (Arabidopsis thaliana)
Technique: DHFR PCA, deep sequencing
Sample: yeast
Setting: methotrexate growth selection, single substitutions
With: (+)-ABA 0.032 µM
Relative to: wild-type fitted maximum
Direction: higher = stronger binding
Endpoint: relative binding score
Starting sequence: PYL1, truncated, DHFR fusion (Arabidopsis thaliana); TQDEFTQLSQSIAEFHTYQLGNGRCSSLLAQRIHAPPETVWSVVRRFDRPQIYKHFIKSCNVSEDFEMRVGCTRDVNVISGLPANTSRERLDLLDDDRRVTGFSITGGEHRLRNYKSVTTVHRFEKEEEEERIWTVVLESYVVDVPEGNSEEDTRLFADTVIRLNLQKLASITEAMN
S117T: 7.73%
L93W: -3.27%
S117V: 1.86%
D96F: 2.56%
Y115E: -3.36%
E151K: 38%
V43P: -1.44%
D48A: -4.97%
I57K: -0.927%
R111P: 24.5%
N149K: 8.92%
W134E: 34.1%
K168V: -2.84%
S80P: -3.29%
E14M: 0.536%
K126N: 59.7%
K168N: 48.7%
S42C: 6.66%
Q19G: 10.5%
V136D: -1.91%
V145Q: -6.71%
Q7D: 27.1%
F124G: 2.51%
T1P: 23.3%
V143M: -3.55%
